Results collected from several papers.
Compare with care: the assays were run in different laboratories. “And” joins repeats or separate records; there may be more than shown. ± gives the spread as reported. Converted amounts (≈) assume the structure as drawn.
Matrix protein 2 S31N: Matrix protein 2 (Influenza A virus, UniProt P0DOF5, S31N)
Matrix protein 2: Matrix protein 2 (Influenza A virus, UniProt P0DOF5)
rep main protease: Replicase polyprotein 1ab, main protease (rep, Severe acute respiratory syndrome coronavirus 2, UniProt P0DTD1)

Cc1nc(CNC23CC4CC(CC(C4)C2)C3)cs1  inhibition (Matrix protein 2 S31N; proton channel activity, inhibitor; Influenzavirus A, S31N mutant; 100 µM): 36%
c1nc(N2CCCCCC2)ncc1CNC12CC3CC(CC(C3)C1)C2  inhibition (Matrix protein 2; channel activity, inhibitor; 100 µM): 0.7 ± 0.7%
O=c1cc(-c2ccc(O)cc2)oc2c([C@@H]3OC[C@H](O)[C@H](O)[C@H]3O)c(O)c([C@@H]3O[C@H](CO)[C@@H](O)[C@H](O)[C@H]3O)c(O)c12  inhibition (Replicase polyprotein 1ab, main protease G143A (rep, Severe acute respiratory syndrome coronavirus 2, UniProt P0DTD1, G3406A); 3CL protease activity, inhibitor; concentration not given, 3CLpro G143A mutant): 32%
COc1ccc(CNc2ccc(C34CC5CC(CC(C5)C3)C4)cc2)c(O)c1  kon (Matrix protein 2 S31N; binding): < 64 M⁻¹ s⁻¹
CC[C@H](C)[C@H](NC(=O)[C@H](CC(=O)O)NC(=O)[C@@H]1CSCC(=O)N[C@H](Cc2ccc(O)cc2)C(=O)N[C@@H](Cc2ccc(O)cc2)C(=O)N[C@@H](CCCCN)C(=O)N2CCC[C@H]2C(=O)N[C@@H]([C@@H](C)O)C(=O)N1)C(=O)N[C@H](C(=O)N[C@@H](CC(C)C)C(=O)N[C@@H](Cc1ccccc1)C(=O)N[C@@H](Cc1c[nH]c2ccccc12)C(=O)N[C@@H](CO)C(N)=O)[C@@H](C)CC  IC50 (rep main protease; enzyme activity, inhibitor): > 50 µM
CC(C)(C)[C@H](NC(=O)NC1(CS(=O)(=O)C(C)(C)C)CCCCC1)C(=O)N1C[C@H]2[C@@H]([C@H]1C(=O)N[C@H](C#N)C[C@@H]1CCNC1=O)C2(C)C  melting temperature (Replicase polyprotein 1ab, main protease H41A (rep, Severe acute respiratory syndrome coronavirus 2, UniProt P0DTD1, H3304A); thermal shift; SARS-CoV-2): 67.1 ± 0.1 °C
CC(C)CC(C(=O)N1CC2(CC1C#N)C(=O)Nc1ccccc12)N(C)C(=O)c1cc2c(F)cc(F)c(F)c2[nH]1 (stereo not shown)  remaining activity (Replicase polyprotein 1ab, main protease K90R/A193V (rep, Severe acute respiratory syndrome coronavirus 2, UniProt P0DTD1, A3456V/K3353R); 3.16 µM): -0.734% and 0.013% and -0.244% and -0.894%
COc1ccc2ncc(F)c(C[C@H](O)[C@H]3OC[C@H](NCc4ccc5c(n4)NC(=O)CO5)CO3)c2c1  MIC (Mycobacterium tuberculosis; H37Rv katG deletion): 0.125 µg/mL (≈ 0.258 µM)
c1nc(N2CCCCCC2)cnc1CNC12CC3CC(CC(C3)C1)C2  inhibition (Matrix protein 2 S31N; channel activity, inhibitor; 100 µM): 84 ± 1.6%
O=C(NC1CCN(c2ncnc3[nH]cnc23)CC1)c1cccc(NS(=O)(=O)c2ccc(C(F)(F)F)cc2)c1  ΔTm (Replicase polyprotein 1ab, nsp14 R310A (rep, Severe acute respiratory syndrome coronavirus 2, UniProt P0DTD1, R6235A); thermal shift; SARS-CoV-2): 5.8 °C and 5.2 °C
COc1ccc2ncc(F)c(CC[C@H]3OC[C@H](NCc4ccc(Cl)c(Cl)c4)CO3)c2n1  MIC (Mycobacterium tuberculosis; H37Rv katG deletion): 0.25 µg/mL (≈ 0.536 µM)
Cc1nc(CNC23CC4CC(CC(C4)C2)C3)no1  inhibition (Matrix protein 2 S31N; channel activity, inhibitor; 100 µM, S31N mutant): 60%
CC(C)C[C@@H]1NC(=O)[C@H](C(C)C)NC(=O)[C@H](C)NC(=O)[C@H](Cc2ccc(O)cc2)NC(=O)[C@H](CCC(N)=O)NC(=O)[C@H](CC(C)C)NC(=O)[C@@H](Cc2ccc(O)cc2)NC(=O)CSC[C@@H](C(N)=O)NC(=O)[C@H](CCC(=O)O)NC(=O)[C@H](CCCNC(=N)N)NC(=O)[C@H](CCCNC(=N)N)NC(=O)[C@H](CCCCN)NC(=O)[C@H](Cc2c[nH]cn2)NC(=O)[C@H](CCCNC(=N)N)NC1=O  IC50 (rep main protease; enzyme activity, inhibitor): 0.07 µM
Cc1cc(CNC23CC4CC(CC(C4)C2)C3)no1  inhibition (Matrix protein 2 S31N; proton channel activity, inhibitor; Influenzavirus A, S31N mutant; 100 µM): 49%
c1nc(N2CCCCC2)ncc1CNC12CC3CC(CC(C3)C1)C2  inhibition (Matrix protein 2 S31N; channel activity, inhibitor; 100 µM): 74.4 ± 3.3%
c1nc(CNC23CC4CC(CC(C4)C2)C3)no1  inhibition (Matrix protein 2 S31N; proton channel activity, inhibitor; Influenzavirus A, S31N mutant; 100 µM): 52%
CC(C)C(=O)OC[C@H]1O[C@@](C#N)(n2ccc(N)nc2=O)[C@H](O)[C@@H]1O  EC50 (SARS-CoV-2 Omicron; viral replication; Calu-3): 1.2 ± 0.4 µM
C=Cc1c(C)c2cc3nc(cc4[nH]c(cc5nc(cc1[nH]2)C(C)=C5CCC(=O)O)c(CCC(=O)OC)c4C)C1(C)C3=CC=C(C(=O)OC)C1C(=O)OC (stereo not shown)  ΔTm (Spike glycoprotein, S2 subunit (Severe acute respiratory syndrome coronavirus 2, UniProt P0DTC2); S2 subunit): -1.05 °C
OC12CC3CC(C1)CC(NCc1cnc(N4CCCCC4)nc1)(C3)C2  inhibition (Matrix protein 2; channel activity, inhibitor; 100 µM): 2 ± 2%
CC1OC(OC2C(OC(=O)C34CCC(C)(C)CC3C3=CCC5C6(C)CCC(OC7OC(CO)C(O)C(O)C7O)C(C)(C)C6CCC5(C)C3(C)CC4O)OCC(O)C2O)C(O)C(O)C1OC1OCC(O)C(OC2OCC(O)C(OC3OCC(O)C(O)C3O)C2O)C1O (stereo not shown)  IC50 (SARS-CoV-2; viral infection; Vero, beta variant B.1.351): 1.47 µM
CC(C)(C)c1ncc(CNC23CC4CC(CC(C4)C2)C3)s1  inhibition (Matrix protein 2 S31N; channel activity, inhibitor; concentration not given, S31N mutant): inactive
O=C[C@H](C[C@@H]1CCNC1=O)NC(=O)[C@H](CC1CCCCC1)NC(=O)c1cc2ccccc2[nH]1  thermal shift (ΔTm) (Replicase polyprotein 1a, main protease (Severe acute respiratory syndrome coronavirus 2, UniProt P0DTC1, P3395H); binding; SARS-CoV-2; concentration not given): 17.8 °C

For quick reference, copied from above:
c1nc(N2CCCCCC2)cnc1CNC12CC3CC(CC(C3)C1)C2  inhibition (Matrix protein 2 S31N; channel activity, inhibitor; 100 µM): 84 ± 1.6%
O=C(NC1CCN(c2ncnc3[nH]cnc23)CC1)c1cccc(NS(=O)(=O)c2ccc(C(F)(F)F)cc2)c1  ΔTm (Replicase polyprotein 1ab, nsp14 R310A (rep, Severe acute respiratory syndrome coronavirus 2, UniProt P0DTD1, R6235A); thermal shift; SARS-CoV-2): 5.8 °C and 5.2 °C
COc1ccc2ncc(F)c(CC[C@H]3OC[C@H](NCc4ccc(Cl)c(Cl)c4)CO3)c2n1  MIC (Mycobacterium tuberculosis; H37Rv katG deletion): 0.25 µg/mL (≈ 0.536 µM)
Cc1nc(CNC23CC4CC(CC(C4)C2)C3)no1  inhibition (Matrix protein 2 S31N; channel activity, inhibitor; 100 µM, S31N mutant): 60%
